Measured values gathered from unrelated publications.
Compare with care: the assays were run in different laboratories.
Cell line: human red blood cells

SMILES	assay	system	conditions	how to read	endpoint	value
CC[C@H](C)[C@H](NC(=O)[C@H](Cc1ccccc1)NC(=O)[C@H](CC(=O)O)NC(=O)[C@H](CCCCN)NC(=O)[C@H](C)NC(=O)[C@H](CCCCN)NC(=O)[C@H](CC(N)=O)NC(=O)[C@H](CC(C)C)NC(=O)[C@H](Cc1c[nH]c2ccccc12)NC(=O)[C@H](CCC(=O)O)NC(=O)[C@H](CCCCN)NC(=O)[C@H](Cc1c[nH]c2ccccc12)NC(=O)CNC(=O)[C@H](C)N)C(=O)N[C@@H](CCCCN)C(=O)N[C@@H](CCC(=O)O)C(=O)N[C@@H](CCCCN)C(=O)NCC(=O)N[C@@H](CC(C)C)C(=O)NCC(=O)N[C@@H](CCSC)C(=O)N[C@@H](CC(C)C)C(=O)N[C@@H](CO)C(=O)N[C@@H](C)C(=O)N[C@@H](C)C(=O)N[C@@H](C)C(=O)N[C@@H](CC(N)=O)C(=O)N[C@@H](C)C(=O)N[C@@H](C)C(=O)N[C@@H](CC(C)C)C(=O)N[C@@H](CC(N)=O)C(=O)O	–	–	1 h	–	HC50	> 100 µM
CC[C@H](C)[C@H](NC(=O)[C@@H](CCCCN)NC(=O)[C@H](CCCCN)NC(=O)[C@H](Cc1ccccc1)NC(=O)[C@H](CC(C)C)NC(=O)[C@@H](CCCCN)NC(=O)[C@H](Cc1c[nH]c2ccccc12)NC(=O)[C@H](CCCCN)NC(C)=O)C(=O)NCC(=O)N[C@@H](C)C(=O)N[C@H](C(=O)N[C@@H](CC(C)C)C(=O)N[C@H](CCCCN)C(=O)N[C@H](C(=O)N[C@@H](CC(C)C)C(N)=O)C(C)C)C(C)C	–	–	64 µM, 1 h, 37 °C	relative to: Triton X-100	hemolysis	< 1%
CC[C@H](C)[C@H](NC(=O)[C@H](Cc1ccccc1)NC(=O)[C@H](CC(=O)O)NC(=O)[C@H](CCCCN)NC(=O)[C@H](C)NC(=O)[C@H](CCCCN)NC(=O)[C@H](CC(N)=O)NC(=O)[C@H](CC(C)C)NC(=O)[C@H](Cc1c[nH]c2ccccc12)NC(=O)[C@H](CCC(=O)O)NC(=O)[C@H](CCCCN)NC(=O)[C@@H](NC(=O)CNC(=O)[C@H](C)N)[C@@H](C)O)C(=O)N[C@@H](CCCCN)C(=O)N[C@@H](CCC(=O)O)C(=O)N[C@@H](CCCCN)C(=O)NCC(=O)N1CCC[C@H]1C(=O)NCC(=O)N[C@@H](CCSC)C(=O)N[C@@H](CC(C)C)C(=O)N[C@@H](CO)C(=O)N[C@@H](C)C(=O)N[C@@H](C)C(=O)N[C@@H](C)C(=O)N[C@@H](CC(N)=O)C(=O)N[C@@H](C)C(=O)N[C@@H](C)C(=O)N[C@@H](CC(C)C)C(=O)N[C@@H](CC(N)=O)C(=O)O	–	–	1 h	–	HC50	> 250 µM
CC[C@H](C)[C@H](NC(=O)[C@H](CCCN)NC(=O)[C@H](CC(N)=O)NC(=O)[C@H](CC(C)C)NC(=O)[C@H](Cc1ccccc1)NC(=O)[C@H](CCCN)NC(=O)[C@H](CCCCNC(=N)N)NC(=O)[C@H](CC(C)C)NC(=O)[C@H](CC(C)C)NC(=O)[C@H](CCCN)NC(=O)[C@H](CCCCNC(=N)N)NC(=O)[C@H](CC(C)C)NC(=O)CNC(C)=O)C(=O)N[C@@H](CCCN)C(=O)N[C@@H](CCCCNC(=N)N)C(N)=O	–	5 % erythrocyte suspension	1 h, 37 °C	–	HC50	> 1000 µM
CC(C)C[C@@H]1NC(=O)[C@H](CC(C)C)NC(=O)[C@H](CCCCN)NC(=O)CSC[C@@H]2NC(=O)[C@H](CC(C)C)NC(=O)[C@H](CC(C)C)NC(=O)[C@H](CCCCN)NC(=O)[C@H](CCCCNC1=O)NC(=O)[C@H](CC(C)C)NC(=O)[C@H](CC(C)C)NC(=O)[C@H](CCCCN)NC(=O)CSC[C@@H](C(=O)N[C@@H](CCCCN)C(N)=O)NC(=O)[C@H](CCCCN)NC(=O)[C@H](CC(C)C)NC(=O)[C@H](CCCCN)NC2=O	–	–	4 h, pH 7.4, room temperature	–	minimal haemolytic concentration	125 µg/mL
N=C(N)NCCC[C@H](NC(=O)[C@@H](N)CCCCN)C(=O)N[C@@H](Cc1c[nH]c2ccccc12)C(=O)N[C@@H](Cc1ccc(-c2ccccc2)cc1)C(=O)N[C@@H](CCC(N)=O)C(=O)N[C@@H](Cc1c[nH]c2ccccc12)C(=O)N[C@@H](Cc1ccc(-c2ccccc2)cc1)C(=O)N[C@@H](CCCCN)C(N)=O	haemolysis	–	1 h, 37 °C	–	HC10	15 µM
CC[C@H](C)[C@H](NC(=O)[C@H](CCCCN)NC(=O)[C@H](CC(N)=O)NC(=O)[C@H](Cc1c[nH]c2ccccc12)NC(=O)[C@H](Cc1ccccc1)NC(=O)[C@H](CCCCN)NC(=O)[C@H](CCCCNC(=N)N)NC(=O)[C@H](CC(C)C)NC(=O)[C@H](Cc1c[nH]c2ccccc12)NC(=O)[C@H](CCCCN)NC(=O)[C@H](CCCCNC(=N)N)NC(=O)[C@H](CC(C)C)NC(=O)CNC(C)=O)C(=O)N[C@@H](CCCCN)C(=O)N[C@@H](CCCCNC(=N)N)C(N)=O	–	5 % erythrocyte suspension	1 h, 37 °C	–	HC50	107 µM
CC(C)C[C@@H]1NC(=O)[C@H](CCCCN)NC(=O)CSC[C@@H]2NC(=O)[C@H](CC(C)C)NC(=O)[C@H](CC(C)C)NC(=O)[C@H](CCCCN)NC(=O)[C@H](CCCCNC(=O)[C@H](CCCCN)NC1=O)NC(=O)[C@H](CCCCN)NC(=O)[C@H](CC(C)C)NC(=O)[C@H](CCCCN)NC(=O)CSC[C@@H](C(=O)N[C@@H](CCCCN)C(N)=O)NC(=O)[C@H](CCCCN)NC(=O)[C@H](CC(C)C)NC(=O)[C@H](CC(C)C)NC2=O	–	–	4 h, pH 7.4, room temperature	–	minimal haemolytic concentration	2000 µg/mL
CC[C@H](C)[C@H](NC(=O)[C@@H](N)C(C)C)C(=O)N[C@@H](Cc1c[nH]cn1)C(=O)N[C@@H](CCCCN)C(=O)N[C@@H](CC(C)C)C(=O)N[C@@H](C)C(=O)N[C@@H](CCCCN)C(=O)N[C@@H](CC(C)C)C(=O)N[C@@H](C)C(=O)N[C@@H](CCCCN)C(=O)N[C@@H](CCCCN)C(=O)N[C@@H](CC(C)C)C(=O)N[C@@H](C)C(=O)N[C@@H](CCCCN)C(=O)N[C@@H](CC(C)C)C(=O)N[C@@H](C)C(=O)N[C@@H](CCCCN)C(N)=O	–	–	MIC against Escherichia coli, 1 h, 37 °C, 0.8% v/v	relative to: Triton X-100	haemolysis	13%
C[C@H](NC(=O)[C@H](CCCNC(=N)N)NC(=O)[C@H](CCCNC(=N)N)NC(=O)[C@@H]1CCCN1C(=O)CNC(=O)[C@H](CCCNC(=N)N)NC(=O)[C@H](CCCNC(=N)N)NC(=O)CN)C(=O)N[C@@H](CC(N)=O)C(=O)N[C@@H](CCC(N)=O)C(=O)N[C@@H](CC(N)=O)C(=O)NCC(=O)N[C@H](C(=O)N[C@@H](CCCNC(=N)N)C(=O)N[C@@H](CCCNC(=N)N)C(=O)N[C@@H](CCCNC(=N)N)C(=O)N[C@@H](CCCNC(=N)N)C(=O)N[C@@H](CCCNC(=N)N)C(=O)N[C@@H](CCCNC(=N)N)C(=O)N[C@H](C(N)=O)[C@@H](C)O)[C@@H](C)O	–	–	24 h, pH 7.4, 37 °C, 0.25% v/v erythrocytes	–	HC50	> 100 µM
CC[C@H](C)[C@H](NC(=O)[C@H](CCCCN)NC(=O)[C@@H](NC(=O)[C@H](CS)NC(=O)[C@H](CCCNC(=N)N)NC(=O)[C@H](CCCNC(=N)N)NC(=O)[C@H](CC(N)=O)NC(=O)[C@H](CCCNC(=N)N)NC(=O)[C@H](CS)NC(=O)[C@@H](NC(=O)[C@H](CO)NC(=O)[C@@H](NC(=O)[C@H](CS)NC(=O)[C@H](CCCCN)NC(=O)[C@@H](N)CCCNC(=N)N)[C@@H](C)CC)C(C)C)[C@@H](C)CC)C(=O)N[C@@H](CS)C(=O)N[C@@H](CCCNC(=N)N)C(=O)O	–	–	128 µg/mL, 3 h, 37 °C	relative to: Triton X-100	hemolysis	0.28%
CC[C@H](C)[C@H](NC(=O)[C@H](CCCNC(=N)N)NC(=O)[C@H](CCCNC(=N)N)NC(=O)[C@H](CCCNC(=N)N)NC(=O)[C@@H](NC(=O)[C@@H](NC(=O)[C@H](C)NC(=O)[C@H](CCCNC(=N)N)NC(=O)[C@H](CCCNC(=N)N)NC(=O)[C@H](CCCNC(=N)N)NC(=O)[C@@H]1CCCN1C(=O)[C@@H](N)CCCNC(=N)N)[C@@H](C)O)[C@@H](C)O)C(=O)N[C@H](C(=O)N[C@H](C(=O)NCC(=O)N[C@H](C(=O)N[C@@H](CCCNC(=N)N)C(=O)N[C@@H](CCCNC(=N)N)C(=O)N[C@@H](CCCNC(=N)N)C(=O)N[C@@H](CCCNC(=N)N)C(N)=O)[C@@H](C)O)[C@@H](C)O)[C@@H](C)O	–	–	24 h, pH 7.4, 37 °C, 0.25% v/v erythrocytes	–	HC50	> 100 µM
CC[C@H](C)[C@H](NC(=O)[C@H](CCCCN)NC(=O)[C@H](CS)NC(=O)[C@H](CC(N)=O)NC(=O)[C@H](C)NC(=O)[C@H](CCCNC(=N)N)NC(=O)[C@H](CCCNC(=N)N)NC(=O)[C@H](CC(N)=O)NC(=O)[C@H](CCCNC(=N)N)NC(=O)[C@@H](NC(=O)[C@H](CCCNC(=N)N)NC(=O)[C@H](CS)NC(=O)[C@H](CO)NC(=O)[C@@H](NC(=O)[C@@H](NC(=O)[C@H](CS)NC(=O)[C@H](CCCCN)NC(=O)[C@@H](N)CCCNC(=N)N)C(C)C)[C@@H](C)CC)[C@@H](C)CC)C(=O)N[C@@H](CC(C)C)C(=O)N[C@@H](CS)C(=O)N[C@@H](CC(N)=O)C(=O)O	–	–	128 µg/mL, 3 h, 37 °C	relative to: Triton X-100	hemolysis	0.62%
CC(C)C[C@@H]1NC(=O)[C@H](CC(C)C)NC(=O)[C@H](CCCCN)NC(=O)CSC[C@@H](C(=O)N[C@@H](CCCCN)C(N)=O)NC(=O)[C@H](CCCCN)NC(=O)[C@H](CC(C)C)NC(=O)[C@H](CCCCN)NC(=O)[C@@H]2CSCC(=O)N[C@@H](CCCCN)C(=O)N[C@@H](CC(C)C)C(=O)N[C@@H](CC(C)C)C(=O)N[C@@H](CCCCNC1=O)C(=O)N[C@@H](CCCCN)C(=O)N[C@@H](CC(C)C)C(=O)N[C@@H](CC(C)C)C(=O)N2	–	–	4 h, pH 7.4, room temperature	–	minimal haemolytic concentration	250 µg/mL

Some of these lines once more:
SMILES	assay	system	conditions	how to read	endpoint	value
CC[C@H](C)[C@H](NC(=O)[C@H](CCCCN)NC(=O)[C@H](CC(N)=O)NC(=O)[C@H](Cc1c[nH]c2ccccc12)NC(=O)[C@H](Cc1ccccc1)NC(=O)[C@H](CCCCN)NC(=O)[C@H](CCCCNC(=N)N)NC(=O)[C@H](CC(C)C)NC(=O)[C@H](Cc1c[nH]c2ccccc12)NC(=O)[C@H](CCCCN)NC(=O)[C@H](CCCCNC(=N)N)NC(=O)[C@H](CC(C)C)NC(=O)CNC(C)=O)C(=O)N[C@@H](CCCCN)C(=O)N[C@@H](CCCCNC(=N)N)C(N)=O	–	5 % erythrocyte suspension	1 h, 37 °C	–	HC50	107 µM
CC(C)C[C@@H]1NC(=O)[C@H](CCCCN)NC(=O)CSC[C@@H]2NC(=O)[C@H](CC(C)C)NC(=O)[C@H](CC(C)C)NC(=O)[C@H](CCCCN)NC(=O)[C@H](CCCCNC(=O)[C@H](CCCCN)NC1=O)NC(=O)[C@H](CCCCN)NC(=O)[C@H](CC(C)C)NC(=O)[C@H](CCCCN)NC(=O)CSC[C@@H](C(=O)N[C@@H](CCCCN)C(N)=O)NC(=O)[C@H](CCCCN)NC(=O)[C@H](CC(C)C)NC(=O)[C@H](CC(C)C)NC2=O	–	–	4 h, pH 7.4, room temperature	–	minimal haemolytic concentration	2000 µg/mL
